Assay results from different studies.
Parts stem from different laboratories: compare values within a part only. Changes are numbered by the printed parent chain.

Set 1
Target: ABI1, truncated, D143A, DHFR fusion (Arabidopsis thaliana)
Method: DHFR PCA, deep sequencing
Medium: yeast
Setting: methotrexate growth selection, single substitutions
Together with: (+)-ABA 0.39 µM
Baseline: wild-type fitted maximum
Direction: higher = stronger binding
Parent: PYL1, truncated, DHFR fusion (Arabidopsis thaliana); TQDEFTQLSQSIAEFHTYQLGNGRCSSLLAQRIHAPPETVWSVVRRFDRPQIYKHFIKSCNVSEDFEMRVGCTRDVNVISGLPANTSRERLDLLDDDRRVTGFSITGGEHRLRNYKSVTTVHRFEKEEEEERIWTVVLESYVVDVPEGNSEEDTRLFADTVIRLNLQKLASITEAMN
Change | relative binding score [%]
E125V | 59.3
D144F | -37.5
E89F | -2.81
E38F | -6.15
F157Q | -0.212
R46G | 0.212

Set 2
Target: RNA binding protein fox-1 homolog 2, RRM domain, GST-SBP tag (RBFOX2, Homo sapiens, UniProt O43251-10, residues 100-194)
Method: RNA Bind-n-Seq
Molecule type: RNA
Medium: in vitro
Concentration: 365 nM
Setting: natural RNA segment, single round, ends assumed
Baseline: no-protein control
Direction: higher = stronger binding
All sequences stand within: GGGAGUUCUACAGUCCGACGAUC … UGGAAUUCUCGGGUGCCAA
Construct (chain): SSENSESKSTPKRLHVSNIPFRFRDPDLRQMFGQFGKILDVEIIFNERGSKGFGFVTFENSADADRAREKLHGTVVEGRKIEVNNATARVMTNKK
Sequence | RBNS enrichment (R)
GUAGAGUGGGGGGCCAAAACCUCUGCAGUCCCCGGCAGUGAGCUAUGGACUUUCUUCCCCCUCACAAGGCUGGGGGCCUCCUGCUCUCGUCCCUGGCCCUCCCUGCACAG | 0.465
CUGGGUAUCUGUCUGGUUCUAUUUUGUUUUGUUAUUAUCCUUGUAUUUCCAGCCACCUCCCAUCCCUUCUUCAAGCUUAGCCAGAUCCUAUCUCGCCCAGUGAAAUCACA | 0.544
UCUGUUUCUGCAGGCAAGGGACAGCGAGGGCUGAGCAUUGGCCUGUAUAAUCUGGUCAGCUUGGACAAUUCCUGCCUCAUUUCCUAUUAAUGUUAGUUUGGAUAAAAAUA | 0.403
UUUUUUUUUCUUUUGUUAGAGGAGAGCUUGAUGUGAUUAUCUUCAAACCCACCAAACCAACAGGAUAAUUGACAAAUAAACGCCAUAGGCUAGGCUGAACUGUAUGUUAC | 0.508
ACCGAAAAGAGUUUAACCAGCCCAACUGUGCCAUCCCUGCCUCCACUUCAGAGGGAUGGAGAAAGAAGUGGAGAAGGUCCUUAACCUGCAGUUUCUGCCUUUAAGCCAAA | 0.55
GCUCGGACAGCACCCUCAGUGCCAGCCAGCCUCUGCCAGACCUCUCUUUCCCUCUUCUCCCCAGCCUCCUCCAGGGCUGCCCAAGGCAGGGUUUCCAGCCAGGCCUCGGG | 0.308

Set 3
Target: Sal-like protein 4, full length isoform B (SALL4, Homo sapiens, UniProt Q9UJQ4-2, residues 1-616)
Method: universal PBM
Molecule type: double-stranded DNA, one strand shown
Medium: in vitro
Concentration: not given
Setting: 8-mer, flanks averaged, mean of replicates
Direction: higher = stronger binding
Construct (chain): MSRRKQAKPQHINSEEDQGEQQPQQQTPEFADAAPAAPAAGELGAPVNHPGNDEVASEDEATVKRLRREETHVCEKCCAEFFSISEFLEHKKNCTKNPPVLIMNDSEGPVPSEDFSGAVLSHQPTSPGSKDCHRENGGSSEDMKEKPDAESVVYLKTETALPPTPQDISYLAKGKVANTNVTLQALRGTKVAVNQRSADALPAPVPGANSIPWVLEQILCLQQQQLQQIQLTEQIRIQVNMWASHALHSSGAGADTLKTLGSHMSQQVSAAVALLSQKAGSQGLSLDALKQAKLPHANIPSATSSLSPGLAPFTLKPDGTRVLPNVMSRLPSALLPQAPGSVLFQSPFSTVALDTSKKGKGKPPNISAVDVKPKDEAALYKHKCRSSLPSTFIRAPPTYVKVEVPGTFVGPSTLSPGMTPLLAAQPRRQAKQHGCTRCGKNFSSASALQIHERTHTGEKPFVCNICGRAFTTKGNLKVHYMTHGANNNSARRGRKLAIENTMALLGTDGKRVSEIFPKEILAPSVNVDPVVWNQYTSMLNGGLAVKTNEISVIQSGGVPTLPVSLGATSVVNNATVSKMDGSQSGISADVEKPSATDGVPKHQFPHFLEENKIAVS
Sequence | E-score
ATTGCCAG | 0.00636
AACCCCGT | -0.144
GCGAGGAC | -0.292
CTGCTATC | -0.0611
GTGAGATA | 0.143
CGCTAGGA | -0.125
AGCGACCG | -0.347
AACCCCAG | -0.194

Other studies, line by line
Molecule | target | assay | system | conditions | scale | measurement | result
PhoQ, residues 284 288 289 292 302 303 ALSMDL | PhoP, residues 12 14 15 18 19 NQGLL (Escherichia coli, UniProt P23836) | Sort-seq, refers to: YFP reporter | E. coli | PhoQ-PhoP variant library, together with: 10 µM Mg2+ | baseline: high Mg2+ state, higher = stronger signaling | fold induction | 12.1

Repeated from above (set 3):
Sequence | E-score
GTGAGATA | 0.143
CGCTAGGA | -0.125
